# Results collected from several papers.
# Compare with care: the assays were run in different laboratories. ± gives the spread as reported.
# Technique: steady-state kinetics
# B1: MSS116 Q412A (Saccharomyces cerevisiae, UniProt P15424); chain LYNDGNRDQRNFGRNQRNNNSNRYRNSRFNSRPRTRSREDDDEVHFDKTTFSKLIHVPKEDNSKEVTLDSLLEEGVLDKEIHKAITRMEFPGLTPVQQKTIKPILSSEDHDVIARAKTGTGKTFAFLIPIFQHLINTKFDSQYMVKAVIVAPTRDLALQIEAEVKKIHDMNYGLKKYACVSLVGGTDFRAAMNKMNKLRPNIVIATPGRLIDVLEKYSNKFFRFVDYKVLDEADRLLEIGFRDDLETISGILNEKNSKSADNIKTLLFSATLDDKVQKLANNIMNKKECLFLDTVDKNEPEAHERIDQSVVISEKFANSIFAAVEHIKKQIKERDSNYKAIIFAPTVKFTSFLCSILKNEFKKDLPILEFHGKITANKRTSLVKRFKKDESGILVCTDVGARGMDFPNVHEVLQIGVPSELANYIHRIGRTARSGKEGSSVLFICKDELPFVRELEDAKNIVIAKQEKYEPSEEIKSEVLEAVTEEPEDISDIVISLISSYRSCIKEYRFSERRILPEIASTYGVLLNDPQLKIPVSRRFLDKLGLSRSPIGKAMFEIRDYSSRDGNNKSYDYDDDSEISFRGNKNYNNRSQNRDYDDEPFRRSNNNRRSFSRSNDKNNYSSRNSNIY
# B2: Nudt8 (Mus musculus, UniProt Q9CR24); chain MLPDGLSAEDEQRCRQLLARTTARLRSRPAAAAVLVPLCLVRGVPALLYTLRSSRLVGRHKGEVSFPGGKCDPDDQDVIHTALRETQEELGLEVPKEHVWGVLQPVYDREKATIVPVLANVGPLDLQSLRPNLEEVDEVFEMSLAHLLQTQNQGYTHFCQGGHFSYTLPVFLHGPHRVWGLTAVITELTLKLLAPGFYQPSLAVPELPRG
# B3: TylM1 (Streptomyces fradiae, UniProt P95748); chain MAHSSATAGPQADYSGEIAELYDLVHQGKGKDYHREAADLAALVRRHSPKAASLLDVACGTGMHLRHLADSFGTVEGLELSADMLAIARRRNPDAVLHHGDMRDFSLGRRFSAVTCMFSSIGHLAGQAELDAALERFAAHVLPDGVVVVEPWWFPENFTPGYVAAGTVEAGGTTVTRVSHSSREGEATRIEVHYLVAGPDRGITHHEESHRITLFTREQYERAFTAAGLSVEFMPGGPSGRGLFTGLPGAKGETR
# B4: enzyme (Neurospora crassa, UniProt Q7SCU7); chain ATSSVSKIVSQPRSLAEVCAALRAKLLAFLALHSNDETVQGTQRRARDAMEVIEEALRRYRPEELSLSYNGGKDCLVLLILILACWPASVQPPSSSSSSSSSSISNSSKQTLPRLQCIYIAPPDPFQEVEDFVATTTEEYHLDLARYALPMRQALDSYLDEKPHVKAVFMGTRRTDPHSEFLNNFTPTDKGWPQFMRINPVLDWHYVEIWTFIRQLDIPFCSLYSQGFSSLGGTKDTRPNPALALNAEGNKFRPAYELTRDDEERLGRDR
# B5: enzyme A178R/D177A/P184R (Levilactobacillus brevis, UniProt Q03Q85); chain MKVTVVGCTHAGTFAIKQILAEHPDAEVTVYERNDVISFLSCGIALYLGGKVADPQGLFYSSPEELQKLGANVQMNHNVLAIDPDQKTVTVEDLTNHAQTTESYDKLVMTSGSWPIVPKIPGIDSDRVKLCKNWAHAQALIEDAKEAKRITVIGAGYIGAELAEAYSTTGHDVTLIARMARVMRKYFDADFTDVIEQDYRDHGVQLALGETVESFTDSATGLTIKTDKNSYETDLAILCIGFRPNTDLLKGKVDMAPNGAIITDDYMRSSNPDIFAAGDSAAVHYNPTHQNAYIPLATNAVRQGILVGKNLVKPTVKYMGTQSSSGLALYDRTIVSTGLTLAAAKQQGLNAEQVIVEDNYRPEFMPSTEPVLMSLVFDPDTHRILGGALMSKYDVSQSANTLSVCIQNENTIDDLAMVDMLFQPNFDRPFNYLNILAQAAQAKVAQSVNA
# B6: PGDH2 (Oryza sativa, UniProt B7FAD2); chain VTLGAGTDGALWPKPAVLVAEKLSEAGLAVLRGFADVECAYGMSPAELLAKVAQFDALIVRSGTKVTREVLEAGRGRLRVVGRAGVGIDNVDLQAATEAGCLVVNAPTANTVAAAEHGIALLASMARNVSQADAALKAGKWQRTKYVGVSLVGKTLAVMGFGKVGSEVARRAKGLGMHVIAHDPYAPADRARAIGAELVSFDEAIGRADFISLHMPLTPATSKVFNDESFSRMKNGVRIINVARGGVIDEDALVRALDSGKVAQAALDVFTEEPPAKDSKLVLHENVTVTPHLGASTVEAQEGVAIEIAEAVVGALRGELAATAVNAPMVPAEVMSELAPYVSLAEKLGKLAVQLVAGESGGIKGVKVVYTTARGPDDLDTRLLRAMVTKGIVEPVSSTFVNLVNADYTAKQRGLRITEERVSHESPAAEAPLESIQVRLSHVQSKFAGAISDGGDIVLEGRVKYGVPHLTVVGPYEVDVSLEGNLILCRQIDQPGMIGKVGNILGQTNVNISFMSVGRTFRGKQAIMAIGVDEEPDKETLEHIGHIPAIEEFVFLEL
# B7: ZDHHC20 (Homo sapiens, UniProt Q5W0Z9); chain MAPWTLWRCCQRVVGWVPVLFITFVVVWSYYAYVVELCVFTIFGNEENGKTVVYLVAFHLFFVMFVWSYWMTIFTSPASPSKEFYLSNSEKERYEKEFSQERQQEILRRAARALPIYTTSASKTIRYCEKCQLIKPDRAHHCSACDSCILKMDHHCPWVNNCVGFSNYKFFLLFLLYSLLYCLFVAATVLEYFIKFWTNELTDTRAKFHVLFLFFVSAMFFISVLSLFSYHCWLVGKNRTTIESFRAPTFSYGPDGNGFSLGCSKNWRQVFGDEKKYWLLPIFSSLGDGCSFPTRLVGMDPEQASVTNQNEYARSSGSNQPFPIKPLSESKNRLLDSESQWLENGAEEGIVKSGTNNHVTVAIEN
# B8: MTRR A129T (Homo sapiens, UniProt Q9UBK8); chain MRRFLLLYATQQGQAKAIAEEICEQAVVHGFSADLHCISESDKYDLKTETAPLVVVVSTTGTGDPPDTARKFVKEIQNQTLPVDFFAHLRYGLLGLGDSEYTYFCNGGKIIDKRLQELGARHFYDTGHTDDCVGLELVVEPWIAGLWPALRKHFRSSRGQEEISGALPVASPASSRTDLVKSELLHIESQVELLRFDDSGRKDSEVLKQNAVNSNQSNVVIEDFESSLTRSVPPLSQASLNIPGLPPEYLQVHLQESLGQEESQVSVTSADPVFQVPISKAVQLTTNDAIKTTLLVELDISNTDFSYQPGDAFSVICPNSDSEVQSLLQRLQLEDKREHCVLLKIKADTKKKGATLPQHIPAGCSLQFIFTWCLEIRAIPKKAFLRALVDYTSDSAEKRRLQELCSKQGAADYSRFVRDACACLLDLLLAFPSCQPPLSLLLEHLPKLQPRPYSCASSSLFHPGKLHFVFNIVEFLSTATTEVLRKGVCTGWLALLVASVLQPNIHASHEDSGKALAPKISISPRTTNSFHLPDDPSIPIIMVGPGTGIAPFIGFLQHREKLQEQHPDGNFGAMWLFFGCRHKDRDYLFRKELRHFLKHGILTHLKVSFSRDAPVGEEEAPAKYVQDNIQLHGQQVARILLQENGHIYVCGDAKNMAKDVHDALVQIISKEVGVEKLEAMKTLATLKEEKRYLQDIWS
# B9: alanine racemase H166A (Geobacillus stearothermophilus, UniProt P10724); chain MNDFHRDTWAEVDLDAIYDNVENLRRLLPDDTHIMAVVKANAYGHGDVQVARTALEAGASRLAVAFLDEALALREKGIEAPILVLGASRPADAALAAQQRIALTVFRSDWLEEASALYSGPFPIHFHLKMDTGMGRLGVKDEEETKRIVALIERHPHFVLEGLYTAFATADEVNTDYFSYQYTRFLHMLEWLPSRPPLVHCANSAASLRFPDRTFNMVRFGIAMYGLAPSPGIKPLLPYPLKEAFSLHSRLVHVKKLQPGEKVSYGATYTAQTEEWIGTIPIGYADGWLRRLQHFHVLVDGQKAPIVGRICMDQCMIRLPGPLPVGTKVTLIGRQGDEVISIDDVARHLETINYEVPCTISYRVPRIFFRHKRIMEVRNAIGRGESSA
# B10: enzyme (Plasmodium falciparum, UniProt Q8ILK1); chain MTNKFNKINKNNYETREAVYYDKGNRINSNKEKEMKEFKEEELKEFFNKWNPFYKEKLNSEIEKKNFINFDGEKKMENGNNEYFNSYNYIHIHEDMIKDEVRTRTYYDSIRKNEHLIKDKIVLDVGCGTGILSFFAATHGAKHVYSIEKSDIIYTAIKIRDENNLTDKVTFLKGLAEEIELPVDKVDIIISEWMGYCLLYENMLDTVLYCRDKWLKEGGLIFPDKAHMYIAGIEDSLYREEKFDFWKNCYDLNFSSVLPIIKEEVVIDYVDRNFVVTDTCCILTLDLNTCTPDQLSFVSPFQLKMIRKDYLHALVIWFDISFSACHTEVNFTTGPYGAHTHWKQIVLYTDHIITAERNETLKGIFALKRNQKNKRHLDMKLHYIFDGVHTKAKSTQLFNIS
# Chain of UniProt O81030 (whole entry, looked up): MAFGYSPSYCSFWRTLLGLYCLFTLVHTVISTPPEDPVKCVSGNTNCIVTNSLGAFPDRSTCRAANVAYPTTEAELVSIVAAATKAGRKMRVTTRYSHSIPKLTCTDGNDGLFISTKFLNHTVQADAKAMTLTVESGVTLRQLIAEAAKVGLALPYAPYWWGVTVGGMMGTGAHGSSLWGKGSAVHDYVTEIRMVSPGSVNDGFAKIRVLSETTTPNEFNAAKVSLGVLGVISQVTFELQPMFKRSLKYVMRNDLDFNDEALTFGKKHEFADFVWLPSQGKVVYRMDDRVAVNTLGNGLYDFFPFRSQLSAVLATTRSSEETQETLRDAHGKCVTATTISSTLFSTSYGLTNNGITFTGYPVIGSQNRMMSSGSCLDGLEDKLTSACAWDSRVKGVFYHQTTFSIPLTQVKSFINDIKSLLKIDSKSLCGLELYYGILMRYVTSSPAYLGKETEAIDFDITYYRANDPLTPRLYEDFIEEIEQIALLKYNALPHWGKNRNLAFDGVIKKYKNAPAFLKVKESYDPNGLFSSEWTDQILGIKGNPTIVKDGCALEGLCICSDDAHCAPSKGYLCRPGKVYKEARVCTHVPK
# Chain of UniProt P50743 (whole entry, looked up): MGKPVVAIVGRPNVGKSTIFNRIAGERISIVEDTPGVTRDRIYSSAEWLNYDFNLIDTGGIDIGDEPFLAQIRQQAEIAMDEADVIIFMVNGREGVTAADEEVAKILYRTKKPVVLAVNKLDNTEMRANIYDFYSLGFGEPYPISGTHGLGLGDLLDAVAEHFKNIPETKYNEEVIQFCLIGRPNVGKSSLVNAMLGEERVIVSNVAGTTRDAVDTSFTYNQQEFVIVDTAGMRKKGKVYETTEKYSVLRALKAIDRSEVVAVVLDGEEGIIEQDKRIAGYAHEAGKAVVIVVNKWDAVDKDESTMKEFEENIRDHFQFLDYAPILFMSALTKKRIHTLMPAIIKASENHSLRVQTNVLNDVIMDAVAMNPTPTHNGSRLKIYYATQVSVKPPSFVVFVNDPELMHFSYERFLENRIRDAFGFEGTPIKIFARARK
Molecule,substrate,setting,kcat [s⁻¹]
B1 (MSS116 Q412A),Nc1ncnc2c1ncn2[C@@H]1O[C@H](COP(=O)(O)OP(=O)(O)OP(=O)(O)O)[C@@H](O)[C@H]1O,"pH 7.5, 37 °C, together with: ATP",0.0567 ± 0.00333
"protein (Cecembia lonarensis, UniProt K1KZY4)",C[C@@H]1O[C@@H](Oc2ccc([N+](=O)[O-])cc2)[C@@H](O)[C@H](O)[C@H]1O,"pH 5.5, 35 °C",1.97 ± 0.09
B2 (Nudt8),CCCC(=O)SCCNC(=O)CCNC(=O)[C@H](O)C(C)(C)COP(=O)(O)OP(=O)(O)OC[C@H]1O[C@@H](n2cnc3c(N)ncnc32)[C@H](O)[C@@H]1OP(=O)(O)O,"pH 8.5, together with: 2 mM Mn2+",1.78 ± 0.15
B3 (TylM1),Cc1cn([C@H]2C[C@H](O)[C@@H](COP(=O)(O)OP(=O)(O)O[C@H]3O[C@H](C)[C@@H](O)[C@H](N)[C@H]3O)O2)c(=O)[nH]c1=O,"25 °C, together with: SAM",0.172 ± 0.004
MCM2-7 (Drosophila melanogaster),Nc1ncnc2c1ncn2[C@@H]1O[C@H](COP(=O)(O)OP(=O)(O)OP(=O)(O)O)[C@@H](O)[C@H]1O,"pH 7.6, 30 °C, no DNA, together with: ATP 0.03 µM-3 mM, magnesium acetate 10 mM",0.0112 ± 0.00117
B4 (enzyme),Nc1ncnc2c1ncn2[C@@H]1O[C@H](COP(=O)(O)OP(=O)(O)OP(=O)(O)O)[C@@H](O)[C@H]1O,"pH 7.5, 37 °C",0.69
"protein (Actinidia deliciosa, UniProt C7SHN9)",CC(C)=CCC/C(C)=C/COP(=O)(O)OP(=O)(O)O,"pH 7.5, together with: GPP 1-100 µM",0.03 ± 0.005
B5 (enzyme A178R/D177A/P184R),NC(=O)C1=CN([C@@H]2O[C@H](COP(=O)(O)OP(=O)(O)OC[C@H]3O[C@@H](n4cnc5c(N)ncnc54)[C@H](O)[C@@H]3O)[C@@H](O)[C@H]2O)C=CC1,"pH 7.5, 37 °C, per site",59 ± 18
B6 (PGDH2),O=C(O)[C@H](O)COP(=O)(O)O,"pH 9, 25 °C, NaCl 0.1 M, apparent, together with: NAD+",30.7 ± 0.4
B7 (ZDHHC20),CCCCCCCCCCCCCCCC(=O)SCCNC(=O)CCNC(=O)[C@H](O)C(C)(C)COP(=O)(O)OP(=O)(O)OC[C@H]1O[C@@H](n2cnc3c(N)ncnc32)[C@H](O)[C@@H]1OP(=O)(O)O,"pH 6.5, 30 °C, NaCl 50 mM",0.275 ± 0.005
B8 (MTRR A129T),CC1=CC(=O)c2ccccc2C1=O,"pH 7.5, 37 °C, substoichiometric FMN, together with: NADPH",0.13 ± 0.004
protein (UniProt M4ZR24),O=c1ccn([C@H]2C[C@H](O)[C@@H](CO)O2)c(=O)[nH]1,"phosphorolysis, single substrate, together with: phosphate",0.467 ± 0.0333
"alanine aminopeptidase (Neisseria meningitidis, UniProt Q9JYV4)",NC(=O)Cc1cc(=O)oc2cc(NC(=O)[C@@H](N)Cc3ccc4ccccc4c3)ccc12,"pH 7.5, 37 °C",2.6 ± 0.27
B9 (alanine racemase H166A),C[C@@H](N)C(=O)O,"pH 9, room temperature, together with: NAD+ 10 mM",3.5
"engA (Bacillus subtilis, UniProt P50743)",Nc1nc2c(ncn2[C@@H]2O[C@H](COP(=O)(O)OP(=O)(O)OP(=O)(O)O)[C@@H](O)[C@H]2O)c(=O)[nH]1,"pH 7.5, 37 °C, KCl 200 mM, free enzyme, apparent, together with: GTP 0-1 mM",0.0228 ± 0.00119
"GulLO5 (Arabidopsis thaliana, UniProt O81030)",O=C1O[C@H]([C@@H](O)CO)[C@H](O)[C@@H]1O,"pH 8, 25 °C, apparent, together with: cytochrome c 121 µM, FAD 100 µM",0.005
B10 (enzyme),C[S+](CC[C@H](N)C(=O)[O-])C[C@H]1O[C@@H](n2cnc3c(N)ncnc32)[C@H](O)[C@@H]1O,37 °C,0.0142 ± 0.00133
